Experimental data of several laboratories.
± marks the error that the study gave.

With O=C(/C=C/c1ccc(O)c(O)c1)O[C@@H]1C[C@](O)(C(=O)O)C[C@@H](O)[C@H]1O the Tmax was 7.8 ± 3 min (Sprague Dawley rat, plasma; oral, 10 g lyophilized powder/kg, high dose).
For Cc1cc(C)c(CNC(=O)c2cc(Cl)c3c(c2C)O[C@@](C)([C@H]2CC[C@H](N(C)C)CC2)O3)c(=O)[nH]1, “incidence of Pneumocystis jirovecii pneumonia” read 0% (relapsed/refractory NHL patients; dose not given, trial, safety set, all TEAEs grade 5).
Under “patients with Stomatitis TEAE”, C[C@]1(O)C[C@@](N)(c2ccc(-c3nc4n(c3-c3ccccc3)COc3ccncc3-4)cc2)C1 is recorded as 0% (human, advanced or metastatic solid tumours; 16 mg once daily, phase I dose escalation).
For CCCCCCCCCCCCCCCC(=O)N[C@@H](CCC(=O)NCCCC[C@H](NC(=O)[C@H](CC(=O)O)NC(=O)[C@H](CO)NC(=O)[C@@H](NC(=O)[C@H](Cc1ccccc1)NC(=O)[C@@H](NC(=O)CNC(=O)[C@H](CCC(N)=O)NC(=O)[C@H](CO)NC(=O)[C@@H](N)Cc1c[nH]cn1)[C@@H](C)O)[C@@H](C)O)C(=O)N[C@@H](CO)C(=O)N[C@@H](CCC(=O)O)C(=O)N[C@@H](Cc1ccc(O)cc1)C(=O)N[C@@H](CC(C)C)C(=O)N[C@@H](CC(=O)O)C(=O)N[C@@H](CO)C(=O)N[C@@H](CCC(=O)O)C(=O)N[C@@H](CCCNC(=N)N)C(=O)N[C@@H](C)C(=O)N[C@@H](CCCNC(=N)N)C(=O)N[C@@H](CC(=O)O)C(=O)N[C@@H](Cc1ccccc1)C(=O)N[C@H](C(=O)N[C@@H](C)C(=O)N[C@@H](Cc1c[nH]c2ccccc12)C(=O)N[C@@H](CC(C)C)C(=O)N[C@@H](CCC(=O)O)C(=O)N[C@@H](C)C(=O)NCC(=O)NCC(=O)O)C(C)C)C(=O)O, “treatment-related adverse events” read 0% (refers to: Hyperglycaemia; humans CrCl below 20 mL/min; subcutaneous, 100 µg single dose).
With CN1CCN(S(=O)(=O)c2cc([N+](=O)[O-])ccc2N(CCOS(C)(=O)=O)CCOS(C)(=O)=O)CC1 the globulin was 16 g/L (naive NOD/SCID mice, pooled blood; intraperitoneal, 18.8 mg/kg, week 4).
O=C(c1ccc(F)c(F)c1Nc1ccc(I)cc1F)N1CC(O)([C@@H]2CCCCN2)C1 — result for “patients with SAE leading to withdrawal”: 0% (human patients; oral, 1 mg/kg, patients aged at least sample B years).
O=S(=O)(Nc1ccccc1)c1ccc(NC(=S)Nc2ccccc2)cc1: “relative organ weight” 4.63% (female mice, liver; oral, 80 mg/kg daily 14 days; relative to: body weight).
CCN1[C@@H](C(=O)NC23CCC(C(=O)O)(CC2)CC3)[C@H](c2cccc(Cl)c2F)[C@]2(C(=O)Nc3cc(Cl)ccc32)C12CCCCC2 gave an anorexia incidence of 0% (patients with advanced solid tumours; oral, 150 mg).
CC(C)CC(=O)OC[C@H]1O[C@@](C#N)(c2ccc3c(N)ncnn23)[C@H](O)[C@@H]1O has a bound fraction of 0.893 (plasma protein binding; rat plasma; 90 µM).
The total Cmax of C[C@H]1C[C@@H](N2C(=N)N[C@](C)(c3cccc(NC(=O)c4cccc(C#N)c4)c3Cl)CC2=O)CCO1 is reported as 12100 ng/mL (Han Wistar rat male; oral, 1000 mg/kg, 7 days).
For O=C1Nc2cc3[nH]nc(-c4ccncc4)c3cc2CN1Cc1ccccc1, “patients with constipation” read 40% (CTCAE v4.03; advanced solid tumour patients; intravenous, 7.2 mg/kg, schedules 1/2).
Under “subjects with drug-related fatigue”, C[C@]1(CO)Cc2ncn(-c3ccc(C#N)c(Cl)c3)c2C(=O)O1 is recorded as 0% (human; 20 mg multiple doses, fasted).
CC(C)c1nc(N(C)S(C)(=O)=O)nc(-c2ccc(F)cc2)c1/C=C/[C@@H](O)C[C@@H](O)CC(=O)O — result for “incidence of decreased appetite”: 0% (healthy human subjects; oral, dose not given, study CL-0537 safety set).
C[C@@H](NC(=O)N1C(=O)[C@H](Cc2ccnc(N)c2)[C@H]1C(=O)O)C1CCCCC1 — result for “incidence of elevated creatine phosphokinase”: 0% (healthy adult Chinese volunteers; continuous intravenous infusion, 1.5 mg/kg/h, 5-day infusion, CTCAE 5.0 grading).
Under “adverse events any grade”, CC(C)n1c(C2CCNCC2)nc2c([N+](=O)[O-])c(Br)c(Br)cc21 is recorded as 24% (refers to: Vomiting; AML patients; 125 mg).
For CC(C)[C@@H]1NC(=O)CNC(=O)[C@H](CC(N)=O)NC(=O)[C@H](CCCNC(=N)N)NC(=O)[C@H](Cc2ccc(O)cc2)NC(=O)[C@H](C(C)C)NC(=O)[C@@H](NC(=O)[C@@H](NC(=O)[C@H](CC(N)=O)NC(=O)[C@H](Cc2c[nH]c3ccccc23)NC(=O)[C@H](C)NC(=O)[C@H](Cc2ccccc2)NC(=O)CN)C(C)C)CSSC[C@@H](C(=O)N[C@@H](Cc2cnc[nH]2)C(=O)N[C@@H](CCCNC(=N)N)C(=O)N[C@@H](CCCNC(=N)N)C(=O)N[C@@H](C)C(=O)N[C@@H](CC(N)=O)C(N)=O)NC(=O)[C@H](C(C)C)NC(=O)[C@H](CCCNC(=N)N)NC1=O, the globulin was 18.9 ± 0.19 g/L (ICR mice, serum; intraperitoneal, 10 mg/kg, day 5).
Cn1ncc(-c2nc(N[C@H]3CC[C@H](N)CC3)ncc2Cl)c1CC1CC1 gave a Cmax of 52.3 ng/mL (HPLC-MS/MS; patients, plasma; oral, 11 mg, day 5).
NCCCC[C@@H]1NC(=O)[C@@H](Cc2c[nH]c3ccccc23)NC(=O)[C@H](c2ccccc2)NC(=O)[C@@H]2C[C@@H](OC(=O)NCCN)CN2C(=O)[C@H](Cc2ccccc2)NC(=O)[C@H](Cc2ccc(OCc3ccccc3)cc2)NC1=O — result for “subjects with feeling hot”: 6% (healthy human volunteers; 1950 µg twice daily).
Cn1c(-c2ccc(C(N)=O)cc2F)nnc1C(C)(C)Oc1c(F)cc(Cl)cc1F: “musculoskeletal disorder TEAE” 0% (human; oral, 60 mg, single ascending dose).
CC(=O)c1c(C)c2cnc(Nc3ccc(C4CCN(CCS(C)(=O)=O)CC4)cn3)nc2n(C2CCCC2)c1=O has a lymphocytopenia of 7.4% (HR+/HER2- advanced breast cancer patients; oral, dose not given, grade 3 or 4).
Under “vascular disorders incidence”, COc1ccc([C@@H](O)c2cc(-c3ncnc4cc(N5CCOCC5)ccc34)c(F)cc2Cl)nn1 is recorded as 2% (patients, advanced solid tumours; oral, 100 mg twice daily, treatment-emergent, added: avelumab; relative to: patients).
Clc1ccc(-c2ccccc2)cc1 has an alanine aminotransferase of 94 ± 44 U/L (Sprague-Dawley rats, female, serum; inhalation, 23 µg/rat, 1 h after exposure).
Under “enzyme contribution to clearance”, CC(C)[C@H](C(=O)O[C@H](C#N)c1cccc(Oc2ccccc2)c1)c1ccc(Cl)cc1 is recorded as 1.74% (refers to: CYP3A4; human, age 1 year).
For CC1(C)NC(=O)N(c2ccc(F)c(OC(F)(F)F)c2)C1=O, toxicity read “toxic” (Schistosoma mansoni-infected NMRI mice; oral, 100 mg/kg, single dose).
Under “patients with adverse event”, CN1CC[C@@H](c2c(O)cc(O)c3c(=O)cc(-c4ccc(C(F)(F)F)cc4Cl)oc23)[C@@H]1CO is recorded as 0% (refers to: Anemia; relapsed B-cell malignancies or AML; oral, 100 mg, grade 3-4, continuous dosing).
For CC(=O)N(C)[C@H]1CCN(C(=O)c2cnc3c(c2)C[C@](C)(c2ccc(F)cc2)N3)C1, “adverse event duration” read 3 days (refers to: urinary frequency; human; oral, dose not given, added: midazolam).
Under “maculopapular rash incidence”, CO[C@H]1C[C@@H]2CC[C@@H](C)[C@@](O)(O2)C(=O)C(=O)N2CCCC[C@H]2C(=O)O[C@H]([C@H](C)C[C@@H]2CC[C@@H](OC(=O)NCCOCCOCCOCCOCCOCCOCCOCCOCCC(=O)N3CCc4cc(Cn5nc(-c6ccc7oc(N)nc7c6)c6c(N)ncnc65)ccc4C3)[C@H](OC)C2)C[C@@H](O)[C@H](C)/C=C(\C)[C@@H](O)[C@@H](OC)C(=O)[C@H](C)C[C@H](C)/C=C/C=C/C=C/1C is recorded as 25% (patients with advanced solid tumours; intravenous, 6 mg weekly, any grade).
For COc1ccc([C@@H]2CC(=O)c3c(O)cc(O)cc3O2)cc1O, “urinary excreted amount, total” read 1130 ± 532 ng (male Sprague-Dawley rat, lean; oral, 100 mg/kg of neohesperidin, 24 to 36 h, after β-glucuronidase/sulfatase hydrolysis).
CCc1ccc(CC/C=C/c2ccc3c(c2)C(=O)CC3)cc1: “large unstained cells” 1.1% (Sprague-Dawley rat, female, blood; oral, 30 mg/kg/day, 14 days).
COc1ccc2nc3cc(Cl)ccc3c(Nc3cc(CN4CCCC4)c(O)c(CN4CCCC4)c3)c2n1 has a plateletcrit of 0.06% (mouse, blood; intraperitoneal, 57 mg/kg).
O=C(Nc1ccccc1)C1CCN(C(=O)Oc2cccnc2)CC1: “subjects with vascular disorder AEs” 7.7% (healthy female subjects; oral, 100 mg).
COc1ccc(C[C@@H]2NC(=O)[C@H]([C@@H](C)O)NC(=O)[C@@H]3[C@@H]4CCN3C(=O)[C@@H]3Cc5cn(c6ccc(F)cc56)CCCCCCN(Cc5ccc(cc5)CCNC(=O)[C@]5(C)CCCN5C2=O)C(=O)CCC(=O)N[C@@H](C)C(=O)N[C@H](CNC(=O)CCCCC[N+](C)(C)C)C(=O)N[C@@H](Cc2cccc(c2)CNC(=O)CO4)C(=O)N3)cc1: “participants with adverse event” 6.5% (refers to: Dizziness; humans; concentration not given, Study-003).
Under “brain tissue binding”, CN(C)C1(CNC(=O)c2ccc3c(c2)CCN3C(=O)c2ccccc2)CCOCC1 is recorded as 55.7% (equilibrium dialysis; mouse brain homogenate; concentration not given, pH 7.4).
CCN(CCO)CCCC(C)Nc1ccnc2cc(Cl)ccc12 (stereo not drawn) — result for “patients with adverse event”: 14% (human, newly diagnosed glioblastoma; oral, 400 mg/dose, maculopapular rash grade 2, with RT and TMZ).
The peripheral volume of CCCCCCCCCC(=O)N[C@@H](Cc1c[nH]c2ccccc12)C(=O)N[C@H](CC(N)=O)C(=O)N[C@@H](CC(=O)O)C(=O)N[C@@H]1C(=O)NCC(=O)N[C@@H](CCCN)C(=O)N[C@@H](CC(=O)O)C(=O)N[C@H](C)C(=O)N[C@@H](CC(=O)O)C(=O)NCC(=O)N[C@H](CO)C(=O)N[C@@H]([C@H](C)CC(=O)O)C(=O)N[C@@H](CC(=O)c2ccccc2N)C(=O)O[C@@H]1C is reported as 2.98 L (population PK model; human; intravenous, dose not given, two-compartment model).
For COc1cc2c(Oc3ccc4[nH]c(C)cc4c3F)ccnc2cc1OCC1(N)CC1, “grade 1 or 2 ALP elevation” read 29.4% (paediatric recurrent refractory sarcoma; concentration not given, whole group).
With C[C@@H]1[C@H](O)[C@@H](C)/C=C/C=C/CC/C=C/C=C/C=C/C=C/C(O[C@H]2O[C@H](C)[C@@H](O)[C@H](N)[C@@H]2O)CC2O[C@](O)(CC(O)C(O)CCC(O)CC(O)CC(O)CC(=O)O[C@H]1C)CC(O)C2C(=O)O (stereo partly drawn) the mortality was 50% (mouse, bilateral renal I/R AKI; iv, 0.1 µmol/kg, within 24 h).
Under toxicity, N=C(N)NCCC[C@H](NC(=O)[C@H](Cc1ccccc1)NC(=O)[C@H](CCC(N)=O)NC(=O)OCc1ccccc1)C(=O)c1nccs1 is recorded as “not toxic” (C57BL/6J mice; intravenous, 5 mg/kg).
For CC(C)[C@H](N)C(=O)NCCCS(=O)(=O)O, the plasma concentration was 297 ng/mL (human; oral, 265 mg twice daily, 5 h post-dose, steady state, week 65).
